Assay results collected from several papers.
Every numbered part comes from another study and shows a few of its results, in no order.
Chain of UniProt P30291 (whole entry, looked up): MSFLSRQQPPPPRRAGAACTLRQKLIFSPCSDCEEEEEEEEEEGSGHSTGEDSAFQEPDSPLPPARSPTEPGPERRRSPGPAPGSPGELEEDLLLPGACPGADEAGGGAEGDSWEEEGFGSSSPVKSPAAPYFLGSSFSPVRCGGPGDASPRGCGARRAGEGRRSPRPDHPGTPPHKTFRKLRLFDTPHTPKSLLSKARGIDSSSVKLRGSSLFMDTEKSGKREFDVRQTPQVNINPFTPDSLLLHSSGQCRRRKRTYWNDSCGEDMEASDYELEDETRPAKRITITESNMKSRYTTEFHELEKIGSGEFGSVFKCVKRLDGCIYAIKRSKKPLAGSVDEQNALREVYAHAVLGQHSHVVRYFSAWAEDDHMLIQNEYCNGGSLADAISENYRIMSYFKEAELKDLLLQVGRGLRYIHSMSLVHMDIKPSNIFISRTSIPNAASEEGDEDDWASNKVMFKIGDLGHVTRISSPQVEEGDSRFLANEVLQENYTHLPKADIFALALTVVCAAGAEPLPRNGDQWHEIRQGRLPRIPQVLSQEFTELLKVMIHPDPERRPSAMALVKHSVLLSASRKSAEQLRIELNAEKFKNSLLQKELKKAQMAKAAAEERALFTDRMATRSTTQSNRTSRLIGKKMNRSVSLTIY
Chain of UniProt P29323 (whole entry, looked up): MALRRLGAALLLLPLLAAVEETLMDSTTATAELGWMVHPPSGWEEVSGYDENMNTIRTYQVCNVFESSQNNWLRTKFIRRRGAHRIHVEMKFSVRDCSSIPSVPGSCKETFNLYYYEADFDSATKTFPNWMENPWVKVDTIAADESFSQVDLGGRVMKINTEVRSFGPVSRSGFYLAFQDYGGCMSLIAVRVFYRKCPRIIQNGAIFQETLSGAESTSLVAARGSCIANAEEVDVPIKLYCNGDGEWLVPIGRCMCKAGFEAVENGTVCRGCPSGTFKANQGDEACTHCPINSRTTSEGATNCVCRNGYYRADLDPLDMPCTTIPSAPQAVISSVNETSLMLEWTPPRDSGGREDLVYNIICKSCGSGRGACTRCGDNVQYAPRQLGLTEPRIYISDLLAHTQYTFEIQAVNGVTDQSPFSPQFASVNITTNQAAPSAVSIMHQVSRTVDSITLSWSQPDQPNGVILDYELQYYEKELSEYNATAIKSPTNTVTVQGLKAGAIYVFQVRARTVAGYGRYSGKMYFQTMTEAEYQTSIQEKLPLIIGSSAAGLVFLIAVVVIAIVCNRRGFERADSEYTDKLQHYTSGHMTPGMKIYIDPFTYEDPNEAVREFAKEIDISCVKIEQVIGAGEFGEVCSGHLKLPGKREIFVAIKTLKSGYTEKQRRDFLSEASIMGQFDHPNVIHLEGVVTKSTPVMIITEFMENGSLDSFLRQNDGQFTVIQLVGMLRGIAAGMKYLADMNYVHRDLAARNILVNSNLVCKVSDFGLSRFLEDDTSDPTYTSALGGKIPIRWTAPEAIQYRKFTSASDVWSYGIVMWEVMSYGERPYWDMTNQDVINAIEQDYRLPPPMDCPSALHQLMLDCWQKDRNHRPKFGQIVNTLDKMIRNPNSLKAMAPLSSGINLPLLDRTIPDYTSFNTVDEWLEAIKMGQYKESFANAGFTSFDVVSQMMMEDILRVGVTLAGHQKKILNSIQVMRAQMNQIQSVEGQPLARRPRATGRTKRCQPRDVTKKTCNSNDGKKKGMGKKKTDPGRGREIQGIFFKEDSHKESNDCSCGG
Chain of UniProt Q9H2G2 (whole entry, looked up): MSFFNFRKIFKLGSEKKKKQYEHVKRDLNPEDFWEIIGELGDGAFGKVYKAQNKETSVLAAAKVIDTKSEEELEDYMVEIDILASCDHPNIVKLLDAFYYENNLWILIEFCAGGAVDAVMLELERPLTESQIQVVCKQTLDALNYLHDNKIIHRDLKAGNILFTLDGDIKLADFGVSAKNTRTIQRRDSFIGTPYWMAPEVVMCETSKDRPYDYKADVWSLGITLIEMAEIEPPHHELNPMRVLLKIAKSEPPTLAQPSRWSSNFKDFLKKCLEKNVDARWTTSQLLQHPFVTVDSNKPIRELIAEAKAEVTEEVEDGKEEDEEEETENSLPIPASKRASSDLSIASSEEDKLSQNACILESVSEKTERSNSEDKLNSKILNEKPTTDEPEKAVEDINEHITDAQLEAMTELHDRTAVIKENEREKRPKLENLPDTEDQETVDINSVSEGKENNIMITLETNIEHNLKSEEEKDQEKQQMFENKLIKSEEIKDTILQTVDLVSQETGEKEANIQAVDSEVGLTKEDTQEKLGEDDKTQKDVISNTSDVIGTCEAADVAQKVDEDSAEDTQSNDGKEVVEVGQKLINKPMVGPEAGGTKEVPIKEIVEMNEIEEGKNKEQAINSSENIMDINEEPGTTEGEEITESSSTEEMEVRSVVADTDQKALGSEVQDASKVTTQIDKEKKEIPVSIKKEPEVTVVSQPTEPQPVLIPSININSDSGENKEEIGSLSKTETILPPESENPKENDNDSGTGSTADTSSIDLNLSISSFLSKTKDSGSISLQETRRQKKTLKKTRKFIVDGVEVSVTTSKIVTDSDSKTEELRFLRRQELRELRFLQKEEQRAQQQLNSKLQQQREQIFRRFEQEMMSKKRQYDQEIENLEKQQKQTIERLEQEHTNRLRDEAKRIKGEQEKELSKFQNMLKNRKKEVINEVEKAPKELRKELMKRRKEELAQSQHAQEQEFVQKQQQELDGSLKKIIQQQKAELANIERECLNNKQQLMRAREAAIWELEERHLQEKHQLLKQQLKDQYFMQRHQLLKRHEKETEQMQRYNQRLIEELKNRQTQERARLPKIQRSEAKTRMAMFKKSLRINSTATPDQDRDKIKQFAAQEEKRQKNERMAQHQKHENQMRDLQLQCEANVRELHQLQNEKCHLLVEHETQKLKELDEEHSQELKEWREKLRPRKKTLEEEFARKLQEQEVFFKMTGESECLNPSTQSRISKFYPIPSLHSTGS
Chain of UniProt P00519 (whole entry, unmodified, looked up): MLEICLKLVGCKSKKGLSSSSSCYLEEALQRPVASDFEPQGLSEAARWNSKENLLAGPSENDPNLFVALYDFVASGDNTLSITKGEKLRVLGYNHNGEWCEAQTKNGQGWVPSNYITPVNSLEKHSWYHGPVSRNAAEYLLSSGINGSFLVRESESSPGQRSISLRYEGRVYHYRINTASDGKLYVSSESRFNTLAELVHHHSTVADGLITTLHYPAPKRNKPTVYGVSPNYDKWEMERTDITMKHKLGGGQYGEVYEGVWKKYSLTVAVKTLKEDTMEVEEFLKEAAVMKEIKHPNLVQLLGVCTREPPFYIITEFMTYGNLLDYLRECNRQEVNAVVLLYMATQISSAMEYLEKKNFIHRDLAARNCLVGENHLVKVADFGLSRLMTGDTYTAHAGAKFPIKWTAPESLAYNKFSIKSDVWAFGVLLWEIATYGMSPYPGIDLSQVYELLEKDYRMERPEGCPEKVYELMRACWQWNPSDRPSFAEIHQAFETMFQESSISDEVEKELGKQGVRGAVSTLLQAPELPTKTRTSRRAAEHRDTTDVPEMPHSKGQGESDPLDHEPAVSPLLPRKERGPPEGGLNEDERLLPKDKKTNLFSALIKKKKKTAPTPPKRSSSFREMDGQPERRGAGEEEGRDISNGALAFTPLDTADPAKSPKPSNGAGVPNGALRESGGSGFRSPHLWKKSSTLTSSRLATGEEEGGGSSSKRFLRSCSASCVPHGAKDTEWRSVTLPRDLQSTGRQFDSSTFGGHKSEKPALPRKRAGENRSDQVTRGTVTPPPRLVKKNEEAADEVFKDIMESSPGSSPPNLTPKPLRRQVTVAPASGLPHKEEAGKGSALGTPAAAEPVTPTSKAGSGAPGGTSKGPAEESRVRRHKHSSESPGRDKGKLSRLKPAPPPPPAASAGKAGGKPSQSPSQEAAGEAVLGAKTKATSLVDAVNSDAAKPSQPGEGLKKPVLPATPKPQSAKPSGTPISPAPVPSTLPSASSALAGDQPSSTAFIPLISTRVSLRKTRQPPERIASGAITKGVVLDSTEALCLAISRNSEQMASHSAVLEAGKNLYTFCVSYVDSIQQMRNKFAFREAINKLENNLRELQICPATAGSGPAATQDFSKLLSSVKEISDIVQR

Set 1 — read-out: cell-free assay; technique: competition with immobilised ligand; concentration: 1 µM
Compound: CNCc1ccccc1-c1csc([C@@H](C)Nc2nc(C)nc3cc(OC)c(OC)cc23)c1
target	remaining binding [%]
MAP4K2 (Homo sapiens, UniProt Q12851)	91
PIM2 (Homo sapiens, UniProt Q9P1W9)	100
CDK17 (Homo sapiens, UniProt Q00537)	94
MAPK11 (Homo sapiens, UniProt Q15759)	86
STK39 (Homo sapiens, UniProt Q9UEW8)	100
PIK3CA (Homo sapiens, UniProt P42336, M1043I)	56
HIPK1 (Homo sapiens, UniProt Q86Z02)	78
STK32B (Homo sapiens, UniProt Q9NY57)	100
SGK2 (Homo sapiens, UniProt Q9HBY8)	95
PRKD1 (Homo sapiens, UniProt Q15139)	90
NIM1K (Homo sapiens, UniProt Q8IY84)	93
FLT3 (Homo sapiens, UniProt P36888)	97
MAP3K4 (Homo sapiens, UniProt Q9Y6R4)	73
TXK (Homo sapiens, UniProt P42681)	76
MYLK2 (Homo sapiens, UniProt Q9H1R3)	91
SLK (Homo sapiens, UniProt Q9H2G2)	97
MAP3K20 (Homo sapiens, UniProt Q9NYL2)	75
Tyrosine-protein kinase JAK1, JH1 (JAK1, Homo sapiens, UniProt P23458)	100

Set 2 — read-out: binding; concentration: 1 µM
SMILES: C[C@H]1CC[C@H](n2c3cnccc3c3cnc(Nc4ccc5c(n4)CCN(C(=O)CO)C5)nc32)CC1
target	technique	remaining binding [%]
TYRO3 (Homo sapiens, UniProt Q06418)	–	100
MERTK (Homo sapiens, UniProt Q12866)	competition with immobilised ligand	45
TNK2 (Homo sapiens, UniProt Q07912)	competition with immobilised ligand	88
MAPK14 (Homo sapiens, UniProt Q16539)	competition with immobilised ligand	88
WEE1 (Homo sapiens, UniProt P30291)	competition with immobilised ligand	100
NEK2 (Homo sapiens, UniProt P51955)	competition with immobilised ligand	100

Set 3 — host: human; sample: microsomes or S9; concentration: 2 µM; time: 0.5 h
SMILES	remaining compound [%]
CCOc1ccc(OCC)c(NC(=O)c2cc3sc(Cl)cc3n2CC)c1	> 99
Nc1[nH]nc(-c2ccc(Br)s2)c1-c1ccc2c(c1)OCO2	74.3
Cc1cc(N2CCCC(N3CCN(C(=O)Nc4cc(C)on4)CC3)C2=O)n(C)n1 (stereo not shown)	> 100
COc1cc(Br)ccc1C1NCCc2c1[nH]c1ccccc21 (stereo not shown)	49.7
Cc1noc(-c2cccn3c(=O)n(Cc4c(C)noc4C)nc23)n1	62.3
O=C(C1CCCC1)N1CCc2nc3cc(C4CCCN(C(=O)C5CCCC5)C4)nn3c(O)c2C1 (stereo not shown)	47.5

Set 4 — concentration: 1 µM
SMILES: C=CC(=O)N1CCC([C@@H]2CCNc3c(C(N)=O)c(-c4ccc(Oc5ccccc5)cc4)nn32)CC1
target	read-out	action	inhibition [%]
WEE1 (Homo sapiens, UniProt P30291)	enzyme activity	inhibitor	4
Tyrosine-protein kinase ABL1, phosphorylated (ABL1, Homo sapiens, UniProt P00519, F317L)	enzyme activity	inhibitor	32
MAP3K15 (Homo sapiens, UniProt Q6ZN16)	enzyme activity	inhibitor	10
Receptor-type tyrosine-protein kinase FLT3, autoinhibited (FLT3, Homo sapiens, UniProt P36888)	enzyme activity	inhibitor	12
ERBB4 (Homo sapiens, UniProt Q15303)	enzyme activity	inhibitor	100
EPHB2 (Homo sapiens, UniProt P29323)	cell-free assay	–	9
EGFR (Homo sapiens, UniProt P00533)	cell-free assay	–	99

Excerpt of the above (set 3):
SMILES	remaining compound [%]
CCOc1ccc(OCC)c(NC(=O)c2cc3sc(Cl)cc3n2CC)c1	> 99
Nc1[nH]nc(-c2ccc(Br)s2)c1-c1ccc2c(c1)OCO2	74.3
Cc1cc(N2CCCC(N3CCN(C(=O)Nc4cc(C)on4)CC3)C2=O)n(C)n1 (stereo not shown)	> 100
COc1cc(Br)ccc1C1NCCc2c1[nH]c1ccccc21 (stereo not shown)	49.7
